Published values from different studies.
Protocols differ between the studies behind these lines. Numbers after ± are the reported error. Converted amounts (≈) assume the structure as drawn.

Substance	assay	test system	conditions	scale	endpoint	value
[Met(O)35]Aβ40	electron microscopy	sodium phosphate buffer	10 µM, pH 7.4, 25 °C, agitation 200 rpm	–	time to fibril formation	≤ 96 h
CSCC[C@@H]1NC(=O)[C@H](CC(=O)O)NC(=O)CNC(=O)[C@H](CCCNC(=N)N)NC(=O)[C@H](C)NC(=O)[C@H](CCC(=O)O)NC(=O)[C@H](CCCNC(=N)N)NC(=O)[C@@H]2CSSC[C@@H]3NC(=O)[C@H](CO)NC(=O)[C@H]([C@@H](C)O)NC(=O)[C@@H]4CCCN4C(=O)[C@H](C)NC(=O)[C@H](Cc4c[nH]c5ccccc45)NC(=O)[C@H](CC(=O)O)NC(=O)CNC(=O)[C@H](CCCNC(=N)N)NC(=O)CNC(=O)[C@H](CCC(N)=O)NC(=O)[C@@H]4CCCN4C(=O)[C@@H](NC(=O)CNC(=O)C(C)F)CSSC[C@H](NC(=O)CNC(=O)[C@H](C)NC(=O)[C@H](CC(C)C)NC(=O)[C@H](CSSC[C@@H](C(=O)NCC(N)=O)NC(=O)[C@H]([C@@H](C)O)NC(=O)[C@H](CCCNC(=N)N)NC(=O)[C@@H]4CCCN4C1=O)NC(=O)[C@H](CC(=O)O)NC(=O)[C@H](CO)NC(=O)[C@H](CC(=O)O)NC(=O)[C@H](CCC(N)=O)NC(=O)[C@H](CO)NC3=O)C(=O)N[C@@H](C(C)C)C(=O)N2 (stereo partly drawn) [fluorine-18 labelled]	–	nude mouse, U-87 MG xenograft, stomach	intravenous, 2.5 h, together with: cyclo(RGDyK) co-injected	–	tissue uptake	0.29 ± 0.12 %ID/g
Oc1c(Cl)cc(Cl)c(Cl)c1Cc1c(O)c(Cl)cc(Cl)c1Cl	–	C57BL/6 mouse, plasma	intravenous, 10 mg/kg, single dose	–	half-life	4.4 h
O=S(=O)(O)Oc1ccc(-c2cccc(Cl)c2)cc1Cl	–	rat Sprague-Dawley male, brain	intravenous, 575 µg/kg, 1 h, mean of detectable animals	–	fraction of dose in brain	1.6%
CC(=O)N[C@H](CCCCNC(=O)C(C)F)C(=O)N[C@@H](CS)C(=O)N[C@@H](CS)C(=O)N[C@@H](CCC(=O)O)C(=O)N[C@@H](Cc1c[nH]cn1)C(=O)N[C@H](Cc1ccccc1)C(=O)N[C@@H](CCCNC(=N)N)C(=O)N[C@@H](Cc1c[nH]c2ccccc12)C(=O)N[C@@H](CS)C(=O)N[C@@H](CCCNC(=N)N)C(=O)N1CCC[C@H]1C(=O)N[C@H](C(N)=O)C(C)C (stereo partly drawn) [fluorine-18 labelled]	–	male C57BL/6 mice, B16-F10 tumour	intravenous, 4 h	relative to: tumour over blood	tumour to tissue uptake ratio	7.45 ± 0.69
CN[C@@](C)(C[18F])C(=O)O	–	SCID mouse DU-145 xenograft, spleen	15 min, post injection	–	tissue uptake	13 ± 1 %ID/g
Cc1cc(C)nc(NC(=S)N2CCN(c3ccc(C(F)(F)F)cn3)CC2)c1	–	aqueous buffer	pH 7.4	–	kinetic solubility	1.23 µM (≈ 0.486 µg/mL)
CC(C)[C@H](O)C(=O)N[C@H]1Cc2ccc3c(c2)[C@]2(C4=C(c5nc(CO)co5)N=C(O4)[C@H](C(C)(C)C)NC1=O)c1cc(F)ccc1N[C@@H]2O3	–	NSG mouse, MDA-MB-231-BrM2 mammary fat pad tumour, tumour	intravenous, 10 mg/kg, single dose at MTD, together with: paclitaxel 40 mg/kg	–	terminal t1/2	29.3 h
[123I]c1cncc(OC[C@@H]2CCN2)c1	SPECT	human, cingulate gyrus	intravenous bolus plus infusion, 7.6 mCi	relative to: tissue over plasma	tissue/plasma ratio	31.9

Repeated from above:
Substance	assay	test system	conditions	scale	endpoint	value
CC(=O)N[C@H](CCCCNC(=O)C(C)F)C(=O)N[C@@H](CS)C(=O)N[C@@H](CS)C(=O)N[C@@H](CCC(=O)O)C(=O)N[C@@H](Cc1c[nH]cn1)C(=O)N[C@H](Cc1ccccc1)C(=O)N[C@@H](CCCNC(=N)N)C(=O)N[C@@H](Cc1c[nH]c2ccccc12)C(=O)N[C@@H](CS)C(=O)N[C@@H](CCCNC(=N)N)C(=O)N1CCC[C@H]1C(=O)N[C@H](C(N)=O)C(C)C (stereo partly drawn) [fluorine-18 labelled]	–	male C57BL/6 mice, B16-F10 tumour	intravenous, 4 h	relative to: tumour over blood	tumour to tissue uptake ratio	7.45 ± 0.69
